Published values from different studies.
Compare with care: the assays were run in different laboratories. “And” joins repeats or separate records; there may be more than shown.

Cn1cncc1C1=CN(c2ncnc3[nH]cnc23)CCS1 — CC50 (T47D): > 200 µM
CN1CCN(C2(CNC3CCN(c4cccc(-c5cc6cc(F)ccc6[nH]5)c4)CC3)CCC2)CC1 — GI50 (T47D): 1.94 µM
COc1c(CCC[P+](c2ccccc2)(c2ccccc2)c2ccccc2)cc2c(c1OC)OCO2.[I-] — TGI (T47D; SRB): -4.45 log M
CCn1cc(-c2cc(Cn3ccnc3)cc3c2CCN([C@H](c2cc(OC)ccn2)C2CC2)C3=O)c(C(F)(F)F)n1 — EC50 (T47D; cell growth, inhibitor; 120 h): > 30 µM
CC(C)N1CCC(NC2CCN(c3cccc(-c4cc5cc(F)ccc5[nH]4)c3)CC2)CC1 — GI50 (T47D): 1.67 µM
CCOC(=O)N1c2ccc(C(F)(F)F)cc2[C@@H](N(Cc2cc(C(F)(F)F)cc(C(F)(F)F)c2)C(=O)OC)C[C@H]1CC — maximum inhibition (human coronavirus OC43; virus-induced cell killing; MRC-5; screen): 20.7%
CCN(CC)c1ccc(C=NNC(=O)CSc2nc3ccccc3c(=O)n2Cc2ccc(S(N)(=O)=O)cc2)c(O)c1 — CC50 (T47D; NCI five-dose screen): > 100 µM
C[C@]12CC[C@H](O)C[C@H]1CC[C@@H]1[C@@H]2CC[C@]2(C)[C@@H](c3ccc(=O)oc3)CC[C@]12O — control reporter activity (T47D; luciferase; 10 nM, reporter without ERE, unit not given; reference: untreated): 0.53 and 0.959 and 0.637
C[C@@H](Oc1cc(-n2cnc3ccc(CN4CCN(C)CC4)cc32)sc1C(N)=O)c1ccccc1C(F)(F)F — maximum inhibition (human coronavirus OC43; virus-induced cell killing; MRC-5; maximum over 10 doses): 0%
COc1cc(CCC[P+](c2ccccc2)(c2ccccc2)c2ccccc2)c(OC)c2c1OCO2.[I-] — TGI (T47D; SRB): -4.83 log M
COc1cnc2cccc(N3CCc4c(cc(Cn5ccnc5C)cc4-c4cn(C)nc4C(F)(F)F)C3=O)c2c1 — EC50 (T47D; cell growth, inhibitor; 120 h): 3.52 µM
